Literature values as cited in several papers.
Each line is one published result; not all experiments were run side by side. ± gives the spread as reported.

For `CCOC(=O)CC(SP(=O)(OC)OC)C(=O)OCC` (stereo not shown), the IC30 was 100 nM (acetylcholinesterase; enzyme activity, inhibitor; thymus tissue; 20 min).
With `c1cncc(N2CCCNCC2)c1` the EC50 was 21 nM (human α4β2 nAChR, high-sensitivity; agonist; Xenopus oocytes).
With `O=c1ccc2ccccc2o1` the AC50 was 15000 to 19000 nM (rat monoamine oxidase A and B; enzyme activity, inhibitor).
`O=C(N[C@H]1COC(=O)[C@@H](NC(=O)c2cccc(O)c2[O-])COC(=O)[C@@H](NC(=O)c2cccc(O)c2[O-])COC1=O)c1cccc(O)c1[O-].[Fe+3]` gave a Km of roughly 0.0001 µM (Escherichia coli ferric siderophore transporters; substrate).
The EC50 of `O=c1c(I)ccc2n1C[C@@H]1CNC[C@H]2C1` is reported as 1500 nM (human α7 nAChR; agonist; Xenopus oocytes).
The IC50 of `NC(=O)[C@@H]1CC[C@@H]2CN1C(=O)N2OS(=O)(=O)O` is reported as greater than 50000 nM (PBP5/6; enzyme activity; highest concentration 50 µM).
Under activity call, `CCC(C)(c1ccc(O)cc1)c1ccc(O)cc1` is recorded as “active” (human FXR alpha; antagonist, Tox21 qHTS or literature; concentration not given).
For `C#CCN(C)CCCOc1ccc(Cl)cc1Cl.Cl`, the inhibition was roughly 90% (MAOA, rat; 5-HT deamination, inhibitor; rat, brain, ex vivo; subcutaneous, 0.3 mg/kg).
Under “hydrolysis fold decrease”, `CCOP(=O)(OCC)Oc1nc(Cl)c(Cl)cc1Cl` is recorded as 13 fold (KIAA1363, mouse; substrate; brain membranes; 1 nM; baseline: knock-out over wild type).
With `O=C(N[C@H](CO)[C@H](O)c1ccc([N+](=O)[O-])cc1)C(Cl)Cl` the Kd was 2300 nM (Escherichia coli ribosome; binding, radioligand binding).
For `CCCCC/C=C\C/C=C\C/C=C\C/C=C\CCCC(=O)NC1CC1`, the EC50 was 2 nM (cannabinoid receptor 1 (human, recombinant); cAMP production inhibition, agonist; added: forskolin).
`CC[C@H](C)[C@H](NC(=O)[C@H](Cc1ccc(O)cc1)NC(=O)[C@@H](NC(=O)[C@@H]1CCCN1C(=O)[C@H](CCCNC(=N)N)NC(=O)[C@H](CC(N)=O)NC(=O)[C@H](CC(N)=O)NC(=O)[C@H](CCCN)N=C(N(C)C)N(C)C)C(C)C)C(=O)N1CCC[C@H]1C(=O)N[C@@H](CCCNC(=N)N)C(=O)N1CCC[C@H]1C(=O)N[C@@H](CCCNC(=N)N)C(=O)N1CCC[C@H]1C(=O)N1CCC[C@H]1C(=O)N[C@@H](Cc1c[nH]cn1)C(=O)N1CCC[C@H]1C(=O)N[C@@H](CCCNC(=N)N)C(=O)N[C@@H](CC(C)C)C(=O)O` has a Kd of 560 ± 60 nM (Escherichia coli BL21(DE3)RIL ribosome; fluorescence polarization).
For `C[C@]12CC[C@H]3[C@@H](CCC4=CC(=O)C=C[C@@]43O)[C@@H]1CCC2=O`, the EC50 was greater than 10000 nM (oestrogen receptor alpha; binding, competition binding).
The EC50 of `Ic1cncc(OC[C@@H]2CCN2)c1` is reported as roughly 18000 nM (GABA-A receptor (α4)3(β3)2; agonist; (α4)3(β3)2 form).
The Km of `tetrahydrofolate` is reported as 20 µM (serine hydroxymethyltransferase, Escherichia coli; substrate).
For `CC(=O)N(O)CCC[C@@H]1NC(=O)CNC(=O)CNC(=O)CNC(=O)[C@H](CCCN(O)C(C)=O)NC(=O)[C@H](CCCN(O)C(C)=O)NC1=O.[Fe+3]`, the Kd was roughly 0.1 nM (Escherichia coli ferric siderophore transporters).
`5′-methylthioadenosine` gave a Km of 0.1 µM (Staphylococcus aureus MTAN; substrate; first active site).
For `CN1Cc2ccccc2[C@@H]2c3cccc4[nH]cc(c34)C[C@H]21`, the intrinsic activity was 68% (dopamine D1 receptor (bovine); agonist; retina; concentration not given).
The EC50 of `c1cnc2cc3c(cc2n1)[C@@H]1CNC[C@H]3C1` is reported as 140 nM (α6β2*-nAChR, monkey; [3H]dopamine release, agonist; striatal synaptosomes).

Excerpt of the above:
For `CN1Cc2ccccc2[C@@H]2c3cccc4[nH]cc(c34)C[C@H]21`, the intrinsic activity was 68% (dopamine D1 receptor (bovine); agonist; retina; concentration not given).
For `C[C@]12CC[C@H]3[C@@H](CCC4=CC(=O)C=C[C@@]43O)[C@@H]1CCC2=O`, the EC50 was greater than 10000 nM (oestrogen receptor alpha; binding, competition binding).
For `CCOC(=O)CC(SP(=O)(OC)OC)C(=O)OCC` (stereo not shown), the IC30 was 100 nM (acetylcholinesterase; enzyme activity, inhibitor; thymus tissue; 20 min).
